Experimental data collected from several papers.
Every numbered part comes from another study and shows a few of its results, in no order.

Set 1
Target: RING finger protein unkempt homolog, zinc fingers 1-6, GST-SBP tag (UNK, Homo sapiens, UniProt Q9C0B0, residues 30-357)
Chain of UniProt Q9C0B0 (30-357, looked up): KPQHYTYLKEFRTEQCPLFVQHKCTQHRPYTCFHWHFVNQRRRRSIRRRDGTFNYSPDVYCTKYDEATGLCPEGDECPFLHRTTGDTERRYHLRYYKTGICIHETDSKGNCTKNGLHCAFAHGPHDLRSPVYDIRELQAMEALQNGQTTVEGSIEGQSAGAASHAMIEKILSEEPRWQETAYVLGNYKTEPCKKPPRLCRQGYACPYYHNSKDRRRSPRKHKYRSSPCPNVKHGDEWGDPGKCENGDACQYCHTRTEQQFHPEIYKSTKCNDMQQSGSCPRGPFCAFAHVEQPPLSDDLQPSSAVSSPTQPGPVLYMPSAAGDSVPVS
Method: RNA Bind-n-Seq
Molecule type: RNA
Sample: in vitro
Tested at: not given
Setting: RNA with constant flanks, human and mouse sites, ends assumed
Reference: input RNA pool
Reading: higher = stronger binding
Strand | bound/input enrichment
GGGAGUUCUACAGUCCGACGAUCGAAAAUGGAAGGUGUGUUACUAAGCUGGAGAGCAUGGGGUUCCGAGUGGGGCAAGGACUGAUAGAAAGGUUUACGAAAGAUACUGCAAGGUUCAAGGAUGAAUUAGACAUCAUGAAGUUCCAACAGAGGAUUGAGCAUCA | 0.681 ratio
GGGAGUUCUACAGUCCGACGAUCUGCAGAAGGCCCAGAUCGUUAAGUUAAUCAAAUUUUCAAAGGAGCAUCCUAUUACCUUAGCAAUUGGUGAUGGUGCAAAUGAUGUCAGUAUGAUCCUGGAGGCCCACGUGGGCAUAGGUGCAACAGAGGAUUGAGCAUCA | 1.6 ratio
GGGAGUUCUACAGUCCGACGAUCCGUGCCCCAGCUGCCCGACGCAGCCCUGGGCCAGGCCCCAGCCCAACACCCCGUAGUCCAAAACAUGCAAGGCCGGCAGAGCUGAAGCUUGCACCUUUGACAAGGGUACUCACACCACCCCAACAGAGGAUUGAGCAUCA | 0.339 ratio
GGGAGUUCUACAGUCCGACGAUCUCACUUGAAAAUAAUGAAACAUUAGAAAGCAUAAUGAAUACCCUAGAGAGUGAAGAAGACUUUAGAAAAUAUUUUUAUUACUUGGAAGGAUCCAAAGAUGCUCUCCUUUGUGGUUUCAGCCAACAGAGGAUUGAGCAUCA | 11.3 ratio
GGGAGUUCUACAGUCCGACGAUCGGUGUCUGUGCUCAAAAGACUGCCUUCUCCAGUGCCCAGUGUAUGAGUGUGUGCCCUGUGCCCUUGUCCCUCACUCCCCACAUGCUGGACGUAGCCCUCUUCCUCGCACCCCUGGGAGGGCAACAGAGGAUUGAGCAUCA | 0.209 ratio
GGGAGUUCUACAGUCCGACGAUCUUCAAAGAAAAGGGCAGCUGUGUCAUUUCAUAAGUAACUCUGGGGGAGGGAAAUUCUGUUCUUUUGUUUAAUUUUCCCCCAAAUGAAGCCAAAGUGUGUGUUGAAGAACUGAGAAAAAAUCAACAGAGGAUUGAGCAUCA | 0.133 ratio
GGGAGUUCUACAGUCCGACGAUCAGUACACAAACUAAUGGACCUUCUGUUCCUAGUGAAGAAGAAAUUGUUCAGCCACUGGAUAGCACAAGAGUGGCUUCUUACAGUGGCACUGUUACUCAAGCCACAUUCACCAGGACUUACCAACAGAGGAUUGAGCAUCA | 0.153 ratio
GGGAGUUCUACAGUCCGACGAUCUUAGCUGAGGACAAGCCUGGUCCAGGUCCAUUUUCUGAUCAGUCUGAACCUGCAAUAACUACUAGUAGUCCUGUGGCUUUUAACCCAUUUCUCAUCCCAGGAGUAUCUCCUGGACUCAUUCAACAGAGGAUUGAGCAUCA | 0.272 ratio
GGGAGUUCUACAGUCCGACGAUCGACACAAUCAUUAACCAGAAACGUUUCAAUGAUGGAUCUGAUGAAAAGAAGAAGCUGUACUGUAUUUAUGUUGCUAUUGGUCAAAAGAGAUCCACUGUUGCCCAGUUGGUGAAGAGACUUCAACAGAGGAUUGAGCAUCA | 0.341 ratio
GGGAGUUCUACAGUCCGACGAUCAUGGAGAAGGAUUCUCUGCCCCGCUUUGUGCGCUCUGAAUUUUAUAAGGAGCUAAUCAAGUAGUCAUCUGGUCAGGCUUCCAAAAGUUGCCCUGUGAGUUGAGUUACAUCCUUUGUAGCACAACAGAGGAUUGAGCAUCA | 0.176 ratio
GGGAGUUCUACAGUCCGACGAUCUUCAUUUUUUUUUUUAAGUGGUUCUCUGCCACAAGAAAGCUUGACACAUUCUUACCAAGAACUAGCCAGGCUUCAUACUUUCUGCUGUGUUCCCGAUAUCUAUGUACUGUGAAGAACCGUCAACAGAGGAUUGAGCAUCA | 1.2 ratio

Set 2
Target: RNA binding protein fox-1 homolog 2, RRM domain, GST-SBP tag (RBFOX2, Homo sapiens, UniProt O43251-10, residues 100-194)
Method: RNA Bind-n-Seq
Molecule type: RNA
Sample: in vitro
Tested at: 365 nM
Setting: natural RNA segment, single round, ends assumed
Reference: no-protein control
Reading: higher = stronger binding
Construct (chain): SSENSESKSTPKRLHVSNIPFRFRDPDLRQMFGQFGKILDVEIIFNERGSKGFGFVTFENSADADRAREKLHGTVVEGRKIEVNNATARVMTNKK
Strand | RBNS enrichment (R)
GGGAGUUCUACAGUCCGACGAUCGGCUGGAACCAUAAGAAGAAUGUUUAUCAGCACGUUCAUUUAUUAUUUUGGAUUUGGAACUUGGCUUUGUUUUUCAAUAGUGACAAGAAUGGUUCAGUUCUAGGAAUGUUUGGAAUUCUCGGGUGCCAA | 2.09
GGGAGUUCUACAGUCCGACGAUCCUGAUUUGAUUUUACGUAUCUUCUAUCUACGCCCUUCCUGUGCCUGUGACUCUCCCCAAAUUGCCCUGUUGCCUUGAGCUCUUCUGAGCUAAGGCAGCCUUCAGUCCCUAUGGAAUUCUCGGGUGCCAA | 0.346
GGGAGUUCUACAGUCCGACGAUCUAAGCUGAACCACCAACAGAGAAAAGCAGGCCUUUGCAGAUAUGAUGGAAUGCAUCCCACCUUGCCAAAGCACUUACACCAGUUUGACUGUGCUAGCUAAAAGACAAAUUUGGAAUUCUCGGGUGCCAA | 1.36
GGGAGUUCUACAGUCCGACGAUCGCGAAGCCAUGCUGGGCGGGAGCUGCACCUGCUGGCGUGGCUCUUCUCACUGAGCUCCUCGCCCCAAAUAUCCCGGUGCUGCCCCUGCUGUCCAGGCUCCAGUGUGACAAUGGAAUUCUCGGGUGCCAA | 0.466
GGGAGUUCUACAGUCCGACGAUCGCAGCCAUUCCUUGCUUCAGUUCCCUUCCACCACCCAGGGCUGGCUUUCCUAUAAGCCACCUCCAGGGUCCAGGGGCUUUCUCUCUCUCUCCGAAGCCCCUGGACCUGUUUGGAAUUCUCGGGUGCCAA | 0.579
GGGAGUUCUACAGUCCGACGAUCGUCCAGUGGAGUGGGGGAAUGCUUCCAUUUGUUCUGCCCUCCCUUACUGCCCAGAAUGUUAGCAUAAAACAACACAGGAAGCUGAUAAAAAUAGCAGCUGUUGUUUCUCUUGGAAUUCUCGGGUGCCAA | 0.775
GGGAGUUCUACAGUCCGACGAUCAUUUGACUGUGGAAGAAGACACUAAGAGCCAGCAGAAGGGCCUGAGCUGCCUCAUUAGCCUGGCUUCAUUUGGGGAGCUCCUGACAGUGUCCCGAGUAGGUGCCCAGCCCUGGAAUUCUCGGGUGCCAA | 0.219
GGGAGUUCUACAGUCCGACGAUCUCUAUUCACACUAUGCUUCCUAGAGACAGAACAAAAAUCAUGUAGGGAAAUUGGGGCUAAUGAGAUCAGUGCCAAAUUUCAGCAGAUACCUGUGAGGCUGACACCUGUUGUGGAAUUCUCGGGUGCCAA | 0.873
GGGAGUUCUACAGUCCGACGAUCAGGGGUACGCUUAGGUGGGCAGUCCUGUGGGGAAAACAUCUUGUCUCCAUCUUGCUAGGAAGAACCAACCCACAAAACAACGCCAUCACUGGAAUCUCCCAUCGCUUUAGUGGAAUUCUCGGGUGCCAA | 0.397

Set 3
Target: Ras GTPase-activating protein-binding protein 1, full length (G3BP1, Homo sapiens, UniProt Q13283)
Chain of UniProt Q13283 (whole entry, looked up): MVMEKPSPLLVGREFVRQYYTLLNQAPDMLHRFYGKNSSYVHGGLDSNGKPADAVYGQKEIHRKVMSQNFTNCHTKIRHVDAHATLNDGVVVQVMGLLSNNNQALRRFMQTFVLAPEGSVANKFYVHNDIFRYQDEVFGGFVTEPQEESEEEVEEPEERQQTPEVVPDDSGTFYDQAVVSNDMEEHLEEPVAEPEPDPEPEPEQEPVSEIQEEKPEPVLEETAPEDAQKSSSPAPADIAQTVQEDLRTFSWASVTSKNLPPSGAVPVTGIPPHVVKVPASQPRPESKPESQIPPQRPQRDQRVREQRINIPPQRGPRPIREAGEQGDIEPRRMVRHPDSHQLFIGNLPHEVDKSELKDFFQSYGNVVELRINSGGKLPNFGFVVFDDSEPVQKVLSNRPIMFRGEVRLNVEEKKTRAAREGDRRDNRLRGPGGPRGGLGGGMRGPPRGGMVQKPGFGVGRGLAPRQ
Method: RNA Bind-n-Seq
Molecule type: RNA
Sample: in vitro
Tested at: 200 nM
Setting: whole 134-nt RNA, ends assumed
Together with: 150 mM LiCl
Reference: input library
Reading: higher = stronger binding
Library: 7-deaza-guanosine replaces G
Strand | log2 enrichment
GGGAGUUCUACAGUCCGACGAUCUGGCCCUGGUGGCAUGCGGGGAGGAAGAGGUGGCCUCAUGGAUCGUGGUGGUCCCGGUGGAAUGUUCAGAGGUGGCCCUGGUGGAGACAGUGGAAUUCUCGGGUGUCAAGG | 0.306
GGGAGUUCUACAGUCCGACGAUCCUCAAGUCCUGUGCUACACAUCGUAUGUACCGAAUCGGGGAGGGGAGGGAGGGAAAGUAUUAUGUUACGCCGUUCGGAUCUGCACUUCCAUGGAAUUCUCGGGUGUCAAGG | -0.135
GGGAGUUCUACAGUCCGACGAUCUCAAGUCCUGUGCUACACAUCGUAUGUACCGAAUCGGAAAAAAAGGAGGUUUGGAAAGUAUUAUGUUACGCCGUUCGGAUCUGCACUUCCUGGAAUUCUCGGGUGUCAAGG | -1.13
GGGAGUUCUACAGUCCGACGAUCCUGUGCUACACAUCGUAUGUACCGAAUCGGGGCCCCCCCGGCCCCCCCGGCCCCCCCGGGGAAAGUAUUAUGUUACGCCGUUCGGAUCUGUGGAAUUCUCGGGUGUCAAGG | 0.394
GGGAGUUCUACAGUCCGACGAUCACCAUGCAGGUGGGCAUCUAUGGGAAGUGGGGCAAGGGGGGGAUAGGGAGGGGGGUAACACUUUGGGAACAGGUGGUCCCAGGUCGUUUCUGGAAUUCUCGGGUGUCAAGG | 0.147
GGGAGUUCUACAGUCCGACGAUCCCUGUGCUACACAUCGUAUGUACCGAAUCGGGUUUUUUUGGUUUUUUUGGUUUUUUUGGGAAAGUAUUAUGUUACGCCGUUCGGAUCUGCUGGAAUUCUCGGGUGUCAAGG | 0.117
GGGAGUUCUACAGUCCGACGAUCCAAGUCCUGUGCUACACAUCGUAUGUACCGAAUCGGGUGGGUUUGGGAAAAAGGGAAAGUAUUAUGUUACGCCGUUCGGAUCUGCACUUCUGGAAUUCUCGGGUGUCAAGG | -0.152
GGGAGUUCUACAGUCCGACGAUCAAGUCCUGUGCUACACAUCGUAUGUACCGAAUCGGUUUUGGGUUUUGGGGUUUUGGGAAAGUAUUAUGUUACGCCGUUCGGAUCUGCACUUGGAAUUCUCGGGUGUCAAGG | -0.0504

Set 4
Target: PABPC1L2, full length, GST fusion (mouse, UniProt A0ABA7IW68)
Method: RNAcompete
Molecule type: RNA
Sample: in vitro
Tested at: 20 nM
Setting: 7-mer, probes averaged, single round
Reference: mean of 7-mers
Reading: higher = stronger binding
Construct (chain): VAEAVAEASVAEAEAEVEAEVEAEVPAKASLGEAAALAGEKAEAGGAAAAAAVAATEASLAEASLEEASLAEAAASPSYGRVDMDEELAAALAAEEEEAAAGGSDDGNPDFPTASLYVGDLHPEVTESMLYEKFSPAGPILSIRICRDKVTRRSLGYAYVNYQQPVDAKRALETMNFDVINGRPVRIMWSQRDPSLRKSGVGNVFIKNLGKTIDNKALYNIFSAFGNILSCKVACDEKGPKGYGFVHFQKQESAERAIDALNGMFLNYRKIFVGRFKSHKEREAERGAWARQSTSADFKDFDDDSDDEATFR
Strand | 7-mer Z-score
AAACGGU | 0.604
GAAGUUA | -0.0627
CUAGCUU | -0.344
GGUGACC | 0.0243
GGUUAAA | 0.447
ACCUAAG | -0.148
GUCAAUU | -0.209
AUGAGCA | -0.0264
AGACUCU | -0.275
AUAAAAA | 12.9
GAGACGA | 0.309
CCUGGGG | -0.0536
CCUAAGC | -0.354
AUCUAUC | -0.206
CGAGCUA | -0.0391
GGAUUGU | -0.11
AAACUGC | 1.09

A few entries again (set 4):
Strand | 7-mer Z-score
AUCUAUC | -0.206
GUCAAUU | -0.209
AAACGGU | 0.604
GGAUUGU | -0.11
GAGACGA | 0.309
